Published values collected from several papers.
Each line is one published result; not all experiments were run side by side. ± marks the error that the study gave.
Fibroin-modulator-binding protein-1: Fibroin-modulator-binding protein-1 99-193 (Bombyx mori, UniProt Q5FBS0)
RAP1/Yku70/Yku80: RAP1/Yku70/Yku80 (Saccharomyces cerevisiae)
HY5/CaM2 1-158; 1-149: HY5/CaM2 1-158; 1-149 (Solanum lycopersicum)
Sequence of UniProt Q6R0H1 (whole entry, looked up): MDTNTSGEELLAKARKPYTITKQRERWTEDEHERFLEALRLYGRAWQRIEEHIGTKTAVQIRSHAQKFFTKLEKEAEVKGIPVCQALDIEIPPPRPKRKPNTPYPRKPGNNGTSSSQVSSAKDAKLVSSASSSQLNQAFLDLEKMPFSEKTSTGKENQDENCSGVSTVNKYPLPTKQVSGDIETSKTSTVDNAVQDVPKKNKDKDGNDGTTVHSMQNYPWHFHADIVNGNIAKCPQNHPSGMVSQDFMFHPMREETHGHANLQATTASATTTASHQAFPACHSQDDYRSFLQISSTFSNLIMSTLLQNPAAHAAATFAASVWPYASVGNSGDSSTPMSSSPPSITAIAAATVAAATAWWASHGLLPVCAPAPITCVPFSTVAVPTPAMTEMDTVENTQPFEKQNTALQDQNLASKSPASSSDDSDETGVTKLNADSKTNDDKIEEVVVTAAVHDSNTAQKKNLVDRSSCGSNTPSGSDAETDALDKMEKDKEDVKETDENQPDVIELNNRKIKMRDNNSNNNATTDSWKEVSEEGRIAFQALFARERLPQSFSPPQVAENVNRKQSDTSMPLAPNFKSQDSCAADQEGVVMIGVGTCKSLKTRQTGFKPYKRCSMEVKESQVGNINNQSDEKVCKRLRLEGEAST
Sequence of UniProt Q9SM50 (whole entry, looked up): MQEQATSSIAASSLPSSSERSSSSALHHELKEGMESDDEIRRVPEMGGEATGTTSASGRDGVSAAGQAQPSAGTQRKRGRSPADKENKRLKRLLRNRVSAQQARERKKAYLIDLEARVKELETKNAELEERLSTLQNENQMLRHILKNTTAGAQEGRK
Sequence of UniProt O75469 (whole entry, looked up): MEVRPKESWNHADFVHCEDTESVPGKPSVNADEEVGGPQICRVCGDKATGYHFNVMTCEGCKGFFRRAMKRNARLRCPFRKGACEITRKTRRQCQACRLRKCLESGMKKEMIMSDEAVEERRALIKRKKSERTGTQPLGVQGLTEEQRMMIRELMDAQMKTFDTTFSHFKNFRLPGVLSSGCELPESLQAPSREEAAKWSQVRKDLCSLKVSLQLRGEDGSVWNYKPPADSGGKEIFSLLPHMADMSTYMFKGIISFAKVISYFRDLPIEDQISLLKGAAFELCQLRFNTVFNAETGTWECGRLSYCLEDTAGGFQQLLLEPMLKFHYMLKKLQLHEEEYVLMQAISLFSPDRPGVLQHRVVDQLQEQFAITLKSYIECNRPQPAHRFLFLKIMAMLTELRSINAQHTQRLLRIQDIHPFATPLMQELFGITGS
Sequence of UniProt P18848 (whole entry, unmodified, looked up): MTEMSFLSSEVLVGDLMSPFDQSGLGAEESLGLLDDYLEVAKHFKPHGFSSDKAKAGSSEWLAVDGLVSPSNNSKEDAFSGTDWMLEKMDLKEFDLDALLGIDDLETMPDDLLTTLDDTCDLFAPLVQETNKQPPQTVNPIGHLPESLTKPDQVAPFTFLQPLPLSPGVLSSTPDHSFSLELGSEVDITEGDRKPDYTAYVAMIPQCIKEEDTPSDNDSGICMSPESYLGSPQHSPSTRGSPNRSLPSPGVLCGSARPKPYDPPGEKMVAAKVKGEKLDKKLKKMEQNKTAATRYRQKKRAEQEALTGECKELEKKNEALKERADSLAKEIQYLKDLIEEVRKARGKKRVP
Sequence of UniProt Q9LJE5 (whole entry, looked up): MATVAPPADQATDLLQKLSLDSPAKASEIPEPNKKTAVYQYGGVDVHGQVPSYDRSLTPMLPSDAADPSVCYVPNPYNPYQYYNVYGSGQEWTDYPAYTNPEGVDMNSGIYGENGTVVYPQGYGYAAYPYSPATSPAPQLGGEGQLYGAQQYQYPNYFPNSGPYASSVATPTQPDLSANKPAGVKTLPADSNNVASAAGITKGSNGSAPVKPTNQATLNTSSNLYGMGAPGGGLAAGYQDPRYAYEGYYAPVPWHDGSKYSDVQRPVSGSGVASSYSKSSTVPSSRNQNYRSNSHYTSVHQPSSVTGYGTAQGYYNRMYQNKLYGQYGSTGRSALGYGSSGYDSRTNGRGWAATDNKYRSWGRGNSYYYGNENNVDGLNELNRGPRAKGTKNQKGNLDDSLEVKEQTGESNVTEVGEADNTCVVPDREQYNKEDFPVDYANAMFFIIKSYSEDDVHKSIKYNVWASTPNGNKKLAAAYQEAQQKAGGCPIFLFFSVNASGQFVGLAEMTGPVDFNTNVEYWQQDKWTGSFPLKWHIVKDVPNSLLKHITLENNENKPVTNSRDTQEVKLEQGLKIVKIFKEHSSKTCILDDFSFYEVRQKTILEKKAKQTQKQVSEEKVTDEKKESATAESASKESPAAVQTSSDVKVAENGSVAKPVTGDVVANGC
Sequence of UniProt P33240 (whole entry, looked up): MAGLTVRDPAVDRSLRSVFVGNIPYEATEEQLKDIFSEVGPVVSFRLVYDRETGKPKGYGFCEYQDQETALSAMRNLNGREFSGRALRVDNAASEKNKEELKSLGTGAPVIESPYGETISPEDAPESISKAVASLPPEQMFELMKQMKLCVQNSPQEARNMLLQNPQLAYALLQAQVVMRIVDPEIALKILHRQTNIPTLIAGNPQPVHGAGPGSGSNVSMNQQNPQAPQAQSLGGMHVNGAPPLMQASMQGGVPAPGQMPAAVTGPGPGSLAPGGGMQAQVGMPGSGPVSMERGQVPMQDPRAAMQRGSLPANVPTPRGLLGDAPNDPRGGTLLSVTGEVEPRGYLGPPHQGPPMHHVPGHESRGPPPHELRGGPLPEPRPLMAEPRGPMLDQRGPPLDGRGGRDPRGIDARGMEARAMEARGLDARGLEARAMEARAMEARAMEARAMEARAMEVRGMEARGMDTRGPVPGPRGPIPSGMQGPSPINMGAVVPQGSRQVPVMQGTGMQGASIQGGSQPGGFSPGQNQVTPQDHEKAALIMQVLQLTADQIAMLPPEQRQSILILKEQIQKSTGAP
Sequence of UniProt Q15109 (whole entry, looked up): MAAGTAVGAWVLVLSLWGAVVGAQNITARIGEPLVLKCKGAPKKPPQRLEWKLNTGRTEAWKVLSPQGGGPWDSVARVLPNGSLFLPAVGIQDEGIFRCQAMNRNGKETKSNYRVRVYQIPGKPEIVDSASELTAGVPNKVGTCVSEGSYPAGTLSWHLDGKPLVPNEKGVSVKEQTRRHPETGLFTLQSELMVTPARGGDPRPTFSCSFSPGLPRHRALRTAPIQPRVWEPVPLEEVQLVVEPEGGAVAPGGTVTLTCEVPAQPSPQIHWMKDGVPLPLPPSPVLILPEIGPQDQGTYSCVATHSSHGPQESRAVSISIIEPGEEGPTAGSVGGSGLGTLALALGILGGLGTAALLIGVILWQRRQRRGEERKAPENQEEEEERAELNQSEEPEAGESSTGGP
Sequence of UniProt P32787 (whole entry, looked up): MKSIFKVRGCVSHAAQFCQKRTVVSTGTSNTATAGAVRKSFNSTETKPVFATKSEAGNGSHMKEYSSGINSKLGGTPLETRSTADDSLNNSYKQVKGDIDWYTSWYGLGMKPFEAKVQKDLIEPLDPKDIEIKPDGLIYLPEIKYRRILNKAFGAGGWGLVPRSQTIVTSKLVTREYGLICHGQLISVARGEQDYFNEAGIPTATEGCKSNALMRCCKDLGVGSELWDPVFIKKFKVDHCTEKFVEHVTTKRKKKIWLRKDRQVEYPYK
Sequence of UniProt P55265 (whole entry, looked up): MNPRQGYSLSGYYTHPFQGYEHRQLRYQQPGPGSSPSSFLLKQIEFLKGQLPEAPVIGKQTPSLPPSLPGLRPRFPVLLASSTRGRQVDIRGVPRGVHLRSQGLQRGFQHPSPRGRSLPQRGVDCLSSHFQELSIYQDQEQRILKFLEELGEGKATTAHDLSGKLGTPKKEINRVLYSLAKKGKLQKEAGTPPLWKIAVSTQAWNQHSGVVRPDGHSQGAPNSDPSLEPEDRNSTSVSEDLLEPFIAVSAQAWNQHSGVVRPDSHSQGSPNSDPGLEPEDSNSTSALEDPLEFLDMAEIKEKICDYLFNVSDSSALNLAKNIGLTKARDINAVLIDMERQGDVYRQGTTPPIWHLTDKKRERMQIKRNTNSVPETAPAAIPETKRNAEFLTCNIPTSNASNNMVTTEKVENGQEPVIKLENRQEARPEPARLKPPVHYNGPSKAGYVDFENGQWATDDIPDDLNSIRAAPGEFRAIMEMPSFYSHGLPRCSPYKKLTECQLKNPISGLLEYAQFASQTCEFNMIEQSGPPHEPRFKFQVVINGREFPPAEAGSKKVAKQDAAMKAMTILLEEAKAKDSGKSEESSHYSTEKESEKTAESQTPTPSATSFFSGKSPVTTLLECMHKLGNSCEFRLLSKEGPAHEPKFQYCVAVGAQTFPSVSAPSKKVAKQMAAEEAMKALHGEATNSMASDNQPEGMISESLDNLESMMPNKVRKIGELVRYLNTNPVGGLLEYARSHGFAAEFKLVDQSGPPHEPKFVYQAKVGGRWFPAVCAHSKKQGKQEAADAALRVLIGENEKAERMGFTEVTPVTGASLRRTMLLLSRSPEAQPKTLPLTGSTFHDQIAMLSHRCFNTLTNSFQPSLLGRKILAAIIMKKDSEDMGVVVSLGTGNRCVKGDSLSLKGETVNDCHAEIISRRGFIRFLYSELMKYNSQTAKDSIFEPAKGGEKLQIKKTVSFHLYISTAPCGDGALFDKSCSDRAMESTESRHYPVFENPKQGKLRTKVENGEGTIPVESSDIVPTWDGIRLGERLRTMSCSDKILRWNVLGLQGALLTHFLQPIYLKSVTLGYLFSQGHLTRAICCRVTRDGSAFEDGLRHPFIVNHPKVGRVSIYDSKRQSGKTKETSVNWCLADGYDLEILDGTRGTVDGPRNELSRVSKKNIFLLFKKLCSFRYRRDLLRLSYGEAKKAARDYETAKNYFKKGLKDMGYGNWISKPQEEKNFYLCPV
Sequence of UniProt P02647 (whole entry, looked up): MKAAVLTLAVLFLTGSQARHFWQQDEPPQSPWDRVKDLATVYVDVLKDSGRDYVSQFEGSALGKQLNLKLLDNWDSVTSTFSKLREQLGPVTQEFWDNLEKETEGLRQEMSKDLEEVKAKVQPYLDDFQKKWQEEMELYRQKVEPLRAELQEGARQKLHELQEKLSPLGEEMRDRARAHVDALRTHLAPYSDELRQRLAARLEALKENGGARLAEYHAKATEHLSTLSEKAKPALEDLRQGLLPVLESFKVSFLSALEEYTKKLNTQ

`CAAAATACAAAGGAGGGCTAGGAATAAAG (dsDNA)` — result for binding: “binds” (Ethylene-responsive transcription factor 13 (Nicotiana attenuata, UniProt A0A1J6JM52); EMSA; double-stranded DNA, one strand shown).
`GTGTTCGGACTCTGCCTCAAGACGGTAGTCAACGTGCTTG (dsDNA)` — result for binding: “binds” (XRS2 1-325 K54E (Saccharomyces cerevisiae, UniProt P33301); EMSA; double-stranded DNA, one strand shown; near wild-type).
`DNA 1 CCAGGAGCAAGGCCGGAAACGTCACCAATGCAACGATCAGCCAACTAAACTAGGACATCT / DNA 2 AGATGTCCTAGTTTAGTTGGCTGATCGTTG (dsDNA; 5' 30 nt overhang; 3'-recessed)` — result for binding: “binds” (tnsE 1-538 (Escherichia coli, UniProt P05845); native MS; double-stranded DNA).
For `AAACAAACAAAC (dsDNA)`, the Kd was 3.07 ± 0.272 µM (Fibroin-modulator-binding protein-1; ITC; double-stranded DNA, one strand shown).
For `DNA 1 AAGGTGTGTGGGTGTGGTAATTTT / DNA 2 ATTACCACACCCACACACCTT (dsDNA; 3' 3 nt overhang)`, binding read “binds” (RAP1/Yku70/Yku80; EMSA; double-stranded DNA).
`AGACAGACAGAC (dsDNA)` has a Kd of 8.38 ± 0.969 µM (Fibroin-modulator-binding protein-1; ITC; double-stranded DNA, one strand shown).
For `TTATTTTTAAAAAATAAAATTTAAAATATTTTATTTTTAAAAAATAAAATTTAAAATATT (dsDNA)`, binding read “binds” (CENPI 57-281 (Homo sapiens, UniProt Q92674); EMSA; double-stranded DNA, one strand shown).
For `CTGCGCACGCATCTGATGGGATATTCTGATCCTTGGTGGATCCC (dsDNA)`, binding read “binds” (PHR2 1-426 (Oryza sativa, UniProt Q6Z156); EMSA; double-stranded DNA, one strand shown).
Under binding, `CAAAATAAAAAAAAAAATAATCAAAAAAAAAAAAAATTTTCATTC (dsDNA)` is recorded as “no binding” (gbp (Glycine max, UniProt Q8LKV1); EMSA; double-stranded DNA, one strand shown).
`TAGCTTCCTCTTCCACCTCTGCCTCTGCCTCACC (dsDNA)` — result for binding: “binds” (C2H2-type domain-containing protein full length assumed (Triticum aestivum, UniProt A0A3B6KUA9); EMSA; double-stranded DNA, one strand shown; added: ZnCl2).
`CCACGACAGTTACGTATGAACCTTTG (dsDNA)`: binding “binds” (HY5/CaM2 1-158; 1-149; EMSA; double-stranded DNA, one strand shown; added: CaCl2 5 mM).
For `TTAGCAAAATACGTTTCAACTTCT (dsDNA)`, binding read “binds” (HY5 full length assumed (Solanum lycopersicum, UniProt Q9SM50); EMSA; double-stranded DNA, one strand shown).
`TGCTGCTTTTGTGCTTTTGTGCTT (ssDNA)`: binding “binds” (AGER 23-342 (Homo sapiens, UniProt Q15109); competition EMSA; single-stranded DNA).
`ACCAAGCGGTATGCGGAGCCGCCGCCGCCGCCG (dsDNA; blunt)`: binding “no binding” (WT1 zinc finger domain 323-435 (Homo sapiens); EMSA; double-stranded DNA, one strand shown).
`GAACAUAGAAAGAGAGAGAUAUAAA (ssRNA; m6A position 3)`: binding “binds” (ECT2 full length assumed (Arabidopsis thaliana, UniProt Q9LJE5); EMSA; RNA).
Under binding, `CACTCCAGTACTGCACTC (dsDNA)` is recorded as “no binding” (ATF4 276-341 C310A (Homo sapiens, UniProt P18848); fluorescence polarization; double-stranded DNA, one strand shown; added: Mg2+ 10 mM).
`GGTGGTGGTGGTGGTGGT (ssDNA)` — result for binding: “binds” (recA full length assumed F204S (Escherichia coli, UniProt P0A7G6); fluorescence anisotropy; single-stranded DNA; added: ATPγS).
For `TCGATTTTCGCGCAAATT (dsDNA; blunt)`, binding read “no binding” (rcoM1 full length assumed (Paraburkholderia xenovorans, UniProt Q13YL3); fluorescence anisotropy; double-stranded DNA, one strand shown; Fe(II)-CO).
`CTATTCATCTATCATAAATTAATTTCGATATTTTGTAAGAATAACTAATCACTGAACAAA (dsDNA)` — result for binding: “binds” (LHY full length assumed (Arabidopsis thaliana, UniProt Q6R0H1); EMSA; double-stranded DNA, one strand shown).
For `TTGATAAGAGGTCATTTTTGCGGATGGCTTAGAGCTTAATTGCTGAATCTGGTGCTGTAGCTCAACATGTTTTAAATATGCAA (dsDNA)`, binding read “binds” (MGM101 23-269 (Saccharomyces cerevisiae, UniProt P32787); mass photometry; double-stranded DNA, one strand shown).
`GGUGUAGAUCAGGCCCGUCUGUUUCUCCCCCGGAGCUCGCUCCCUUGGCUUCCCUUAUAUAUUUUAACAUCAGAAACAGACAUUAAACAUCUACUGAUCCAAUUUCGCCGGCGUACGGCCACGAUCGGGAGGGUGGGAAUCUCGGGGGUCUUCCGAUCCUAAUCCAUGAUGAUUACGACCUGAGUCACUAAAGACGAUGGCAUGAUGAUCCGGCGAUGAAAAA (structured RNA)` — result for binding: “binds” (Reverse transcriptase-like protein 275-1114 D996A (Bombyx mori, UniProt V9H052); competition; folded RNA).
`GUGUGU (ssRNA)`: binding “binds” (CSTF2 1-107 (Homo sapiens, UniProt P33240); NMR titration; RNA; 27 °C).
For `CTATAGCAATGGTACGGTACTTCCCCTCGGCACGTTCTCAGTAGCGCTCGCTGGTCATCCCACACAAAAGTGCACGCTACTTTGCTAA (ssDNA; 5'-amino C6 linker)`, binding read “binds” (APOA1 25-267 (Homo sapiens, UniProt P02647); electrochemiluminescence aptasensor; single-stranded DNA).
`ACCAAGCGGGATGCGGAGCCGCCGCCGCCGCTG (dsDNA; blunt)`: binding “no binding” (WT1 zinc finger domain 323-435 (Homo sapiens); EMSA; double-stranded DNA, one strand shown).
Under binding, `ATAAGTCACATGATGATATTTGATTTTATTATATTTTTAAAAAAAGTAAAAAATAAAAAGTAGTTTATTTTTAAAAAATAAAATTTAAAATATTTCACAAAATGATTTCCGAA (dsDNA)` is recorded as “binds” (CENP-I 1-229 K189E (Thermochaetoides thermophila, UniProt G0SFF7); EMSA; double-stranded DNA, one strand shown).
`AAACCGCTCTCCCATATGCGACGCGCG (dsDNA)` — result for binding: “no binding” (Opaque endosperm 11 1-624 (Zea mays, UniProt A0A1D6EAS7); EMSA; double-stranded DNA, one strand shown; added: Mg2+).
`CTTTATAAGAATAATTGTTCACTC (dsDNA)`: binding “no binding” (SPL2 1-415 (Malus domestica, UniProt D9ZJC1); EMSA; double-stranded DNA, one strand shown).
For `DNA 1 GGATCTCGACGCTCTCCCTT / DNA 2 GAGAGCGTCGAGATCC (dsDNA; 3' 4-nt overhang, blunt end)`, binding read “no binding” (RECQL 49-616 D230A/R232A (Homo sapiens, UniProt P46063); fluorescence anisotropy; double-stranded DNA; Mg2+ 5 mM, added: ADPNP 2 mM).
`CTCATTACACAGTCTTAGTCACATCGGTGAAAATATCAATTAATATTCCCCAGAAAGTTG (dsDNA)`: binding “binds” (CCA1 full length assumed (Arabidopsis thaliana, UniProt P92973); EMSA; double-stranded DNA, one strand shown).
`GGTTAGGGTTAG (ssDNA; 5'-phosphate)` — result for binding: “binds” (POT1 1-299 Y9A (Homo sapiens, UniProt Q9NUX5); EMSA; single-stranded DNA).
`CGCGCG (dsDNA; blunt self-complementary duplex)`: binding “binds” (ADAR 133-199 (Homo sapiens, UniProt P55265); CD; double-stranded DNA, one strand shown).
For `GCAGGAGAAACACGTGTTGCCACTTT (dsDNA)`, binding read “binds” (HY5/CaM2 1-158; 1-149; EMSA; double-stranded DNA, one strand shown; added: CaCl2 5 mM).
`ATACGGGAAGTTTGAGGCAAAATCCACTTGACCATAC (dsDNA)` — result for binding: “no binding” (ERF-D2 full length assumed (Solanum lycopersicum, UniProt A0A3Q7JX06); EMSA; double-stranded DNA, one strand shown; mutant probe).
`AAGGTGTGTGGGTGTGGTAATC (dsDNA)`: binding “binds” (RAP1/Yku70/Yku80; mass photometry; double-stranded DNA, one strand shown).
Under binding, `GTGAATATTGCTTGAAATTTAGTTTGTGTGAAAAAAGCATATTCCAACA (dsDNA)` is recorded as “no binding” (LHY (Arabidopsis thaliana, UniProt Q6R0H1); EMSA; double-stranded DNA, one strand shown).
`AAAAAAAA (ssRNA)`: binding “no binding” (PABPN1 161-257 F215L/Y217L (Homo sapiens, UniProt Q86U42); pull-down; RNA).
Under binding, `TGTCAGGCAAGAATTAGAGACAAGCGGTCAGCAGAGCCTCAGTGCTGATCGTCGGAGCTTGGGAGCAGGA (dsDNA)` is recorded as “binds” (MAFB full length assumed (Homo sapiens, UniProt Q9Y5Q3); EMSA; double-stranded DNA, one strand shown).
`TGAGGCGTGTTTGCCAAAGGGCTATCTGTACTGCAAGGTT (dsDNA)`: binding “no binding” (Transcription factor full length assumed (Rosa chinensis, UniProt A0A2P6P452); EMSA; double-stranded DNA, one strand shown).
`TGTTGTGTGGAATTGTGAGCGGATAACAATTTCACACAGG (dsDNA (Escherichia coli); blunt)` — result for binding: “binds” (lacI full length assumed (Escherichia coli, UniProt P03023); filter binding; double-stranded DNA, one strand shown; no effector).
For `UUUUUUUUUUUUUUUUUUUUUUUUUUUUUUUUUUUUUUUU (ssRNA)`, binding read “no binding” (NR1I2 (Homo sapiens, UniProt O75469); EMSA; RNA; 200 nM RNA).
Under binding, `TTTATTTT (ssDNA)` is recorded as “binds” (Rc3h1 411-454 (Mus musculus, UniProt Q4VGL6); NMR; single-stranded DNA).

For quick reference, copied from above:
`ACCAAGCGGGATGCGGAGCCGCCGCCGCCGCTG (dsDNA; blunt)`: binding “no binding” (WT1 zinc finger domain 323-435 (Homo sapiens); EMSA; double-stranded DNA, one strand shown).
`TGTTGTGTGGAATTGTGAGCGGATAACAATTTCACACAGG (dsDNA (Escherichia coli); blunt)` — result for binding: “binds” (lacI full length assumed (Escherichia coli, UniProt P03023); filter binding; double-stranded DNA, one strand shown; no effector).
`CTCATTACACAGTCTTAGTCACATCGGTGAAAATATCAATTAATATTCCCCAGAAAGTTG (dsDNA)`: binding “binds” (CCA1 full length assumed (Arabidopsis thaliana, UniProt P92973); EMSA; double-stranded DNA, one strand shown).
`TGAGGCGTGTTTGCCAAAGGGCTATCTGTACTGCAAGGTT (dsDNA)`: binding “no binding” (Transcription factor full length assumed (Rosa chinensis, UniProt A0A2P6P452); EMSA; double-stranded DNA, one strand shown).
